Measured values collected from several papers.
Every numbered part comes from another study and shows a few of its results, in no order. Positions count from the first letter of the parent shown.

Block 1 — technique: protein-binding microarray; molecule type: double-stranded DNA, one strand shown; matrix: in vitro; tested at: not given; direction: higher = stronger binding
Target: Max dimerization protein 1, bHLH-zipper, MAX partner unstated (MXD1, Homo sapiens, UniProt Q05195, residues 56-136)
Setting: k-mer, scored over probes, only values ≥0.25
Residues (chain): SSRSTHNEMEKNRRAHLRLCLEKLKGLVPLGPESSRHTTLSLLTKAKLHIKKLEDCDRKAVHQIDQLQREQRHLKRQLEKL
With `CCATGCTA` the E-score was 0.276.
`CATGGCAC` has an E-score of 0.307.
`CCGCCTCA` has an E-score of 0.26.
The E-score of `AAGCATGA` is reported as 0.316.
`ACCAGCAT` gave an E-score of 0.254.
`ACCACGCT` has an E-score of 0.386.
The E-score of `CCACGTCA` is reported as 0.255.
For `ACGTGCCT`, the E-score was 0.377.
`GGGGGGCA` has an E-score of 0.322.
For `GTGGCGCA`, the E-score was 0.283.
For `GGGGGGTA`, the E-score was 0.33.
With `CGCATGTA` the E-score was 0.373.
The E-score of `CATGCGAC` is reported as 0.371.

Block 2 — target: CCND2, cyclin fold, Cln2 fusion (human); technique: yeast growth competition, sequencing; matrix: yeast; setting: weak parent motif; reference: not given; direction: higher = stronger binding
Starting sequence: SAMHD1 docking peptide (human); ASKSRVQLFKDDP; partner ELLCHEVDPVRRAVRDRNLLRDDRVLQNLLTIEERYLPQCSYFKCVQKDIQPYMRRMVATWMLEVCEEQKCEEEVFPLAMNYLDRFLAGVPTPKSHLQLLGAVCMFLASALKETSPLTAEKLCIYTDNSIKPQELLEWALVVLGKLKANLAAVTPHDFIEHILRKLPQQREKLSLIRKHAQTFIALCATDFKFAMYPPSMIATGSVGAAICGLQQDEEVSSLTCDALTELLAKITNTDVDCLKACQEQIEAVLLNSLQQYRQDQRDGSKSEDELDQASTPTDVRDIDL
`K3N` — result for “normalised enrichment score”: 0.173.
`R5D`: “normalised enrichment score” 0.0747.
For `K10N`, “normalised enrichment score” read 0.114.
`S4R` — result for “normalised enrichment score”: 0.308.
`K3M`: “normalised enrichment score” 0.321.
Under “normalised enrichment score”, `L8D` is recorded as 0.301.
`S4N` — result for “normalised enrichment score”: 0.0576.
For `D11Q`, “normalised enrichment score” read -0.465.
For `Q7N`, “normalised enrichment score” read 0.158.
Under “normalised enrichment score”, `D11R` is recorded as -0.339.
Under “normalised enrichment score”, `Q7L` is recorded as 0.177.
Under “normalised enrichment score”, `S4Q` is recorded as 0.147.

Block 3 — technique: DHFR PCA, deep sequencing; matrix: yeast; added: (+)-ABA 58 µM; reference: wild-type fitted maximum; direction: higher = stronger binding
Target: ABI1, truncated, D143A, DHFR fusion (Arabidopsis thaliana)
Setting: methotrexate growth selection, single substitutions
Starting sequence: PYL1, truncated, DHFR fusion (Arabidopsis thaliana); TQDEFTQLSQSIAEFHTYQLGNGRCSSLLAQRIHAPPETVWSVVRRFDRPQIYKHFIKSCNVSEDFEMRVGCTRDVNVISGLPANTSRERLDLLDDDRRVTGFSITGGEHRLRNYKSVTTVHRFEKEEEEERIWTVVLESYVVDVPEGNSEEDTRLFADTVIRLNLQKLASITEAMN; partner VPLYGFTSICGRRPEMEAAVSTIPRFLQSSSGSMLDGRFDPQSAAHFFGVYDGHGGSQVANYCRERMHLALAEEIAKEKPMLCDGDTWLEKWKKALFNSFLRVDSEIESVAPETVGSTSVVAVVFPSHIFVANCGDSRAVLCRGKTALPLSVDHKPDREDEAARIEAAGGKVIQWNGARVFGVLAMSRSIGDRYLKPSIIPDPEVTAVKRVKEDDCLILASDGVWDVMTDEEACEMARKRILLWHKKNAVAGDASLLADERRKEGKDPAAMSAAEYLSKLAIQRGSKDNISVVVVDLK
For `R113N`, “relative binding score” read 96.2%.
`T1P` — result for “relative binding score”: 91.2%.
`P37L` — result for “relative binding score”: 62.3%.
Under “relative binding score”, `K168V` is recorded as 71.4%.
`E14M` — result for “relative binding score”: 70.2%.
Under “relative binding score”, `E64W` is recorded as 72.5%.

Single results of other studies
`PhoQ, residues 284 288 289 292 302 303 GASLAW` has a fold induction of 1.02 (PhoP, residues 12 14 15 18 19 SMASL (Escherichia coli, UniProt P23836); Sort-seq, refers to: YFP reporter; E. coli; PhoQ-PhoP variant library, added: 10 µM Mg2+; reference: high Mg2+ state, higher = stronger signaling).
